Measured values gathered from unrelated publications.
Lines come from different studies, so protocols differ. ± marks the error that the study gave. Ends that are not written are not given here.
B1: UGT1A9 (Homo sapiens, UniProt O60656); chain GKLLVVPMDGSHWFTMRSVVEKLILRGHEVVVVMPEVSWQLGRSLNCTVKTYSTSYTLEDLDREFKAFAHAQWKAQVRSIYSLLMGSYNDIFDLFFSNCRSLFKDKKLVEYLKESSFDAVFLDPFDNCGLIVAKYFSLPSVVFARGILCHYLEEGAQCPAPLSYVPRILLGFSDAMTFKERVRNHIMHLEEHLLCHRFFKNALEIASEILQTPVTEYDLYSHTSIWLLRTDFVLDYPKPVMPNMIFIGGINCHQGKPLPMEFEAYINASGEHGIVVFSLGSMVSEIPEKKAMAIADALGKIPQTVLWRYTGTRPSNLANNTILVKWLPQNDLLGHPMTRAFITHAGSHGVYESICNGVPMVMMPLFGDQMDNAKRMETKGAGVTLNVLEMTSEDLENALKAVINDKSYKENIMRLSSLHKDRPVEPLDLAVFWVEFVMRHKGAPHLRPAAHDLTWYQYHSLDVIGFLLAVVLTVAFITFKCCAYGYRKCLGKKGRVKKAHKSKTH

CC(C)[C@H](NC(=O)[C@@H]1CCCN1C(=O)[C@H](CCCNC(=N)N)NC(=O)[C@H](CS)NC(=O)[C@H](Cc1c[nH]c2ccccc12)NC(=O)[C@H](CCCNC(=N)N)NC(=O)[C@@H](Cc1ccccc1)NC(=O)[C@H](Cc1c[nH]cn1)NC(=O)[C@H](CCC(=O)O)NC(=O)[C@H](CS)NC(=O)[C@H](CS)NC(=O)[C@H](CCCCN)NC(=O)[C@@H]1CC(=O)N[C@@H](CCCNC(=N)N)C(=O)N[C@@H](C)C(=O)N[C@@H](CC(=O)O)C(=O)N[C@H](Cc2ccc(O)cc2)C(=O)N1)C(N)=O [technetium-99m labelled]
tissue uptake (C57 mice, heart; intravenous, 0.037 MBq, 2 h): 0.32 ± 0.13 %ID/g

CCCCCCCCCCCCCCCC(=O)NCCCC[C@H](NC(=O)[C@H](CSCC(=O)NCc1cn(CCOc2ccc(C3=C4C(C)=C(I)C(C)=[N+]4[B-](F)(F)n4c(C)c(I)c(C)c43)cc2)nn1)NC(=O)c1ccc(-c2nnc(C)c3c2CCC(O)CCC3)cc1)C(=O)N[C@@H](CCCNC(=N)N)C(=O)N[C@@H](CCCNC(=N)N)C(=O)N[C@@H](CCCNC(=N)N)C(=O)N[C@@H](CCCNC(=N)N)C(N)=O (stereo partly drawn)
singlet oxygen quantum yield (1 µM, added: DPBF, 525 nm light; reference: rose bengal, erythrosine B): 0.59

CSCC[C@H](NC(=O)[C@H](CC(C)C)NC(=O)[C@H](Cc1c[nH]cn1)NC(=O)CNC(=O)[C@@H](NC(=O)[C@H](C)NC(=O)[C@H](Cc1c[nH]c2ccccc12)NC(=O)[C@H](CCC(N)=O)NC(=O)CCCCCNC(=O)[C@H](CCC(=O)NCCCC[C@@H]1NC(=O)[C@@H](Cc2ccc(O)cc2)NC(=O)[C@H](CC(=O)O)NC(=O)CNC(=O)[C@H](CCCNC(=N)N)NC1=O)NC(=O)CN1CCN(CC(=O)O)CCN(CC(=O)O)CC1)C(C)C)C(N)=O [copper-64 labelled]
tissue uptake (ICR SCID mouse, female, lung; intravenous, 750 kBq, 24 h): 0.56 ± 0.16 %ID/g

COc1cccc2c1C(=O)c1c(O)c3c(c(O)c1C2=O)C[C@@](O)(C(=O)CO)C[C@@H]3O[C@H]1C[C@H](NC(=O)[C@@H]2CCCN2C(=O)CN)[C@H](O)[C@H](C)O1
Cmax (mouse, E0771 tumour-bearing, plasma; intravenous, 92 µmol/kg PhAc-ALGP-Dox): 3.7 µM

KCNTATCATQRLANFLVHSSNNFGPILPPTNVGSNTY (Pramlintide; not fully specified (C-terminus, bridges); cysteine pairing not given here; sequence looked up)
adverse event incidence (refers to: Diarrhea; peptide, obese or overweight humans; concentration not given, ITT population): 5.4%

B1 (UGT1A9)
Vmax/Km (O=c1ccoc2cc(O)ccc12; steady-state kinetics; pH 7.4, 37 °C): 8 µL/min/mg

insulin aspart
Cmax (obese type 2 diabetes patients, serum; subcutaneous, 0.2 U/kg, geometric mean): 0.000363 µM

insulin degludec
Cmax ratio (ELISA; human mild renal impairment, serum; dose not given, single dose; reference: impaired over normal renal function): 1.14

insulin aspart
Cmax ratio (human, healthy; subcutaneous, 0.2 U/kg; reference: reference insulin aspart (EU)): 99.9%

A few entries again:
insulin aspart
Cmax (obese type 2 diabetes patients, serum; subcutaneous, 0.2 U/kg, geometric mean): 0.000363 µM
